# Published values gathered from unrelated publications.
# Each line is one published result; not all experiments were run side by side. pIC50: −log10 of the molar value.
# CA9: Carbonic anhydrase 9 (CA9, Homo sapiens, UniProt Q16790)
# Chain of UniProt P27361 (whole entry, looked up): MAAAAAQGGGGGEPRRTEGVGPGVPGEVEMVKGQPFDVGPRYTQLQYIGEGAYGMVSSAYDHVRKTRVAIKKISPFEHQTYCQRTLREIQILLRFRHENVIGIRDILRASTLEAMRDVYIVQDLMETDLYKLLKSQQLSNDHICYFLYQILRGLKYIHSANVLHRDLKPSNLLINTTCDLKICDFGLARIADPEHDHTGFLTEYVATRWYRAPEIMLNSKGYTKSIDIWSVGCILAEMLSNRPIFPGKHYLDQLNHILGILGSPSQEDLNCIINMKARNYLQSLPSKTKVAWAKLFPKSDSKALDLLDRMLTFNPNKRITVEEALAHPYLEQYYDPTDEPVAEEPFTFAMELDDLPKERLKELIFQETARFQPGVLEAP
# Chain of UniProt Q13237 (whole entry, looked up): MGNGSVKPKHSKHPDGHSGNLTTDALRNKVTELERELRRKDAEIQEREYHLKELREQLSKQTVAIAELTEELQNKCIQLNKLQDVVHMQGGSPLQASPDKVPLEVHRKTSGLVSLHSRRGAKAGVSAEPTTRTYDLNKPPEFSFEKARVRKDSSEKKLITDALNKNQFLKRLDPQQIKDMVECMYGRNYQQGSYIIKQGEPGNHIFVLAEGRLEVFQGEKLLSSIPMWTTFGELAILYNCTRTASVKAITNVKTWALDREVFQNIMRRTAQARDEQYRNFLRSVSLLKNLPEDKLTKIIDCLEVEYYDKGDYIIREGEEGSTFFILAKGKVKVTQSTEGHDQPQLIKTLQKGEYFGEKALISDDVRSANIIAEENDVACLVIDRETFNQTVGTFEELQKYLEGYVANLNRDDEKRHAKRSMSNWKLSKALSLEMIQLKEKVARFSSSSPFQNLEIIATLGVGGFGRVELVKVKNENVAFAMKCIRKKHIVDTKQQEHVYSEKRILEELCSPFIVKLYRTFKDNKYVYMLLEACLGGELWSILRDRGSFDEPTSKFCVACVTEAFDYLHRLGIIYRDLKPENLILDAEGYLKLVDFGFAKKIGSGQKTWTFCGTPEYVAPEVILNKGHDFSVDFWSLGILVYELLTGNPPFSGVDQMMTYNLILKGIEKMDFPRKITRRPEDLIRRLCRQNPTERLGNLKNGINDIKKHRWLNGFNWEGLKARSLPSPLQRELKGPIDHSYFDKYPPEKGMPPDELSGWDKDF
# Chain of UniProt P49286 (whole entry, looked up): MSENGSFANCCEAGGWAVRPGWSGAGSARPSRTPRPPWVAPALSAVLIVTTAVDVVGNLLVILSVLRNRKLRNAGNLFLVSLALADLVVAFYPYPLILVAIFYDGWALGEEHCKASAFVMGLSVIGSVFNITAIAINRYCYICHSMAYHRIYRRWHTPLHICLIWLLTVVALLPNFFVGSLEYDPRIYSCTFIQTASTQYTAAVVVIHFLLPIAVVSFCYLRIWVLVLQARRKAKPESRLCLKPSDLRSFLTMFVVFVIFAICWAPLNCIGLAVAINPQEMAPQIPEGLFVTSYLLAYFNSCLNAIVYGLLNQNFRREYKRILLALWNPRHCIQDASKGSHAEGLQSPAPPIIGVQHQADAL
# Chain of UniProt O00418 (whole entry, looked up): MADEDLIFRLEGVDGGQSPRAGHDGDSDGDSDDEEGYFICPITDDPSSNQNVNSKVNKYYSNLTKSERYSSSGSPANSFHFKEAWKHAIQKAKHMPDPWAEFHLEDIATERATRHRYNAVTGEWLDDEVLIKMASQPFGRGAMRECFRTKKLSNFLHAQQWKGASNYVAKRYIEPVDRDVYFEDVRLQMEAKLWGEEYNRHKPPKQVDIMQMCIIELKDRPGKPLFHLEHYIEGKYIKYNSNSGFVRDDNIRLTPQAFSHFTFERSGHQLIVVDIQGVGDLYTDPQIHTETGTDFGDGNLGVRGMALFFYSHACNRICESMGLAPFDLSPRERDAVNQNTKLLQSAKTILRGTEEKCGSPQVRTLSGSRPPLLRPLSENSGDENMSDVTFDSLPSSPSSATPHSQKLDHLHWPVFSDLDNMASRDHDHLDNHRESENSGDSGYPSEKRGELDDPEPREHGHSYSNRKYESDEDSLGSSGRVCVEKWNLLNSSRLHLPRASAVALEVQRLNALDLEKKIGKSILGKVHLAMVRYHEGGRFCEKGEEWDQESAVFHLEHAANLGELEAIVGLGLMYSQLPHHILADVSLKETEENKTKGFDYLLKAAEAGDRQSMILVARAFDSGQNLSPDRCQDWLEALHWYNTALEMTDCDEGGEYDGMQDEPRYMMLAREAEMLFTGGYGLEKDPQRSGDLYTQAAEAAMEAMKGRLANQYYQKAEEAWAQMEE
# Chain of UniProt Q9SZU7 (whole entry, unmodified, looked up): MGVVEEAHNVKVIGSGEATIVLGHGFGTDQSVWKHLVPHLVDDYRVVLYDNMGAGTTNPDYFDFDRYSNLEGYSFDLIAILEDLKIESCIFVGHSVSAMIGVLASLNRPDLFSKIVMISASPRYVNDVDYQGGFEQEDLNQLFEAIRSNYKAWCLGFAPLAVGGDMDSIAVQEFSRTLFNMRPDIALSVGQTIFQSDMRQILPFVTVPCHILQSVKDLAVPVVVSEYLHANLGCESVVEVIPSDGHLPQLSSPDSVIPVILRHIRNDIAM
# Chain of UniProt Q13557 (whole entry, looked up): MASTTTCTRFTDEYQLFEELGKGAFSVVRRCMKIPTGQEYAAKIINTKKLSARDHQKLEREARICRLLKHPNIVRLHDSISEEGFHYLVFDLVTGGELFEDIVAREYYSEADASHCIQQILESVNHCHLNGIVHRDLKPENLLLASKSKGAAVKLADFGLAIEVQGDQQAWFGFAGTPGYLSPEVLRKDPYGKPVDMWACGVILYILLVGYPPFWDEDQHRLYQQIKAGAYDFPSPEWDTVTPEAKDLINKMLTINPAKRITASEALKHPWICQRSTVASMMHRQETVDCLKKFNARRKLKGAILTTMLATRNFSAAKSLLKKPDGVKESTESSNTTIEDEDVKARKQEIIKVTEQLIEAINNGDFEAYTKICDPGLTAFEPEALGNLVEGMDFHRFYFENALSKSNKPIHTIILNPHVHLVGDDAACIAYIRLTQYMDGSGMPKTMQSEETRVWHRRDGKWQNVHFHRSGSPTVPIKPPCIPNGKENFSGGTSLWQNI
# Chain of UniProt Q2M2I8 (whole entry, looked up): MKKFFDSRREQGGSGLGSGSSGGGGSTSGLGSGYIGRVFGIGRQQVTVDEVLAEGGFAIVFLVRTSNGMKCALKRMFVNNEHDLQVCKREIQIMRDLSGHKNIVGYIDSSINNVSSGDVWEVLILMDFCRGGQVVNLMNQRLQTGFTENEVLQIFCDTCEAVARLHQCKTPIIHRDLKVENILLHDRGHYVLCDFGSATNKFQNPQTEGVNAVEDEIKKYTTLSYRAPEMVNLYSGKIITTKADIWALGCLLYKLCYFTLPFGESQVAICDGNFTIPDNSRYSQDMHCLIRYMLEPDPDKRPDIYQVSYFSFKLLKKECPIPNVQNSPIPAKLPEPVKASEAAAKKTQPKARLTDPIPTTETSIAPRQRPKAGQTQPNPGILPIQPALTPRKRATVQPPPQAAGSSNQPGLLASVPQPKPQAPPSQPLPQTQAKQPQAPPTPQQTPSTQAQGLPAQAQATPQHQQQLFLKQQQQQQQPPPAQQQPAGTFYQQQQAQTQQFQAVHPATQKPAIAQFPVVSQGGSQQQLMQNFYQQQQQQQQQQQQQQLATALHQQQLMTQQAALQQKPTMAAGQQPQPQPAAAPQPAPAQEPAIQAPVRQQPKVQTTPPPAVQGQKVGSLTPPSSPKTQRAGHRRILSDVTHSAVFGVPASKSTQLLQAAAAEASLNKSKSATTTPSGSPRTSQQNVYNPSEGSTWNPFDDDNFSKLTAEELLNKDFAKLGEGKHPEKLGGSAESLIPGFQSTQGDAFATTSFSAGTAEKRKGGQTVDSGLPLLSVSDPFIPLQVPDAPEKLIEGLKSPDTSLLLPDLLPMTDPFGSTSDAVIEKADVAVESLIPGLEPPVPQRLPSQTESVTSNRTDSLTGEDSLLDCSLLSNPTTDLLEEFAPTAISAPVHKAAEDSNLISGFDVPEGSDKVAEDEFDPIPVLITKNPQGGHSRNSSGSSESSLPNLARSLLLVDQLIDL
Compound,tested on,test,conditions,endpoint,result
Cc1cc(S(N)(=O)=O)ccc1CNC(=O)Nc1ccc(Cl)c(C(=O)NCc2cccs2)c1,CA9,"enzyme activity, inhibitor",,pIC50,7.07
CNc1ncc2c(/C=C/C(=O)N3CCC(OC)CC3)nn(Cc3cccc(C(F)(F)F)c3)c2n1,"PRKG2 (Homo sapiens, UniProt Q13237)","enzyme activity, inhibitor, radiometric",1 µM,remaining activity,101%
C=CC(=O)N1CCC(COCC(=O)N2CCN(c3nc(-c4cnc(N)nc4C(F)F)nc(N4CCOC[C@@H]4C)n3)CC2)CC1,"AAK1 (Homo sapiens, UniProt Q2M2I8)","binding, competition with immobilised ligand",1 µM,remaining binding,100%
Cc1noc(NS(=O)(=O)c2ccc(N=NN(C)O)cc2)c1C,,"DPPH scavenging, absorbance",60 µg/mL,inhibition,11.1%
Cc1nn(-c2ccc(S(N)(=O)=O)cc2)c(C)c1CCC(=O)Nc1ccc(OCc2cn(C)nn2)cc1,CA9,"enzyme activity, inhibitor",,pIC50,7.62
CC[C@H](C)[C@H](NC(=O)[C@H](CCC(N)=O)NC(=O)[C@@H](NC(=O)[C@H](CCSC)NC(=O)[C@H](CCCCN)NC(=O)[C@H](CO)NC(=O)[C@@H](NC(=O)[C@H](CCSC)NC(=O)[C@H](CC(C)C)NC(=O)[C@H](CC(N)=O)NC(=O)[C@@H](NC(=O)[C@@H](NC(=O)[C@H](CO)NC(=O)[C@H](CC(C)C)NC(=O)[C@H](C)NC(=O)[C@H](CCCNC(=N)N)NC(=O)[C@H](CCC(=O)O)NC(=O)[C@H](Cc1ccc(O)cc1)NC(=O)[C@H](Cc1ccccc1)NC(=O)[C@H](C)NC(=O)[C@H](CC(N)=O)NC(=O)[C@@H](N)CCCCN)[C@@H](C)CC)[C@@H](C)CC)[C@@H](C)O)C(C)C)C(=O)N[C@@H](CC(N)=O)C(=O)N[C@H](C(=O)O)C(C)C,"MAPK3 (Homo sapiens, UniProt P27361)","enzyme activity, inhibitor, radiometric","50 µM, 20 min",remaining activity,98%
Cc1cc([C@@H](C)Nc2ccccc2C(=O)O)c2nc(N3CCC(F)(F)CC3)c(C#N)c(=O)n2c1,"PAK4 (Homo sapiens, UniProt O96013)","binding, competition with immobilised ligand",10 µM,remaining binding,100%
C1=C/COCc2cc(ccc2OCCN2CCCC2)Nc2nccc(n2)-c2cccc(c2)COC/1,"FLT3 (Homo sapiens, UniProt P36888, D835H)",binding,0.1 µM,remaining binding,16%
CC(=NNC(=S)Nc1ccccc1)c1ccc(Nc2nnc(-c3ccc(Cl)cc3)c3ccccc23)cc1,HepG2,"cell growth or viability, MTT",2.5 µM,cell death,77.5%
O=C(NCCc1cccc2ccccc12)C1CCC1,"MTNR1B (Homo sapiens, UniProt P49286)","GTPγS binding, agonist, radiometric",cell membranes,Emax,42%
O=C(Nc1ccccc1)Nc1ccc(Oc2nnc(-c3ccc(Cl)cc3)c3ccccc23)cc1,HepG2,"cell growth or viability, MTT",2.5 µM,cell death,94.8%
N=c1c[n+](N2CCOCC2)[n-]o1,"SIRT3 (Homo sapiens, UniProt Q9NTG7)","enzyme activity, inhibitor",,KI (inactivation),7 µM
CCCCC(=O)Nc1ccc(-c2ccc3ncn(CCC)c(=O)c3c2)cn1,"CAMK2D (Homo sapiens, UniProt Q13557)","binding, competition with immobilised ligand",0.5 µM,remaining binding,100%
COc1cc(-c2cncc3c2CN(C)Cc2cc(N4CCNCC4)ccc2-3)cc(OC)c1OC,"EEF2K (Homo sapiens, UniProt O00418)","enzyme activity, inhibitor",1 µM,remaining activity,109%
CC(=O)/C=C/C=C(C)/C=C/C1=C(C)CC(O)CC1(C)C (stereo in doubt),"KAI2 (Arabidopsis thaliana, UniProt Q9SZU7)","thermal stability, DSF",10 µM,ΔTm,0.44 °C
